# Experimental data of several laboratories.
# Protocols differ between the studies behind these lines.
# Organism: Staphylococcus aureus
Structure (SMILES),technique,strain,medium,time,temperature,setting,MIC
CC(C)C[C@@H](NC(=O)CNC(=O)[C@@H](CCCCN)NC(=O)[C@@H](CC(C)C)NC(=O)[C@@H](CCCCN)NC(=O)[C@@H](CCCNC(=N)N)NC(=O)[C@@H](CC(C)C)NC(=O)[C@@H](CC(C)C)NC(=O)[C@@H](CCCNC(=N)N)NC(=O)[C@H](N)CCCNC(=N)N)C(=O)N[C@H](CCCCN)C(=O)N[C@H](CCCCN)C(=O)N[C@H](Cc1ccc(O)cc1)C(=O)N[C@H](CC(C)C)C(=O)N[C@H](Cc1ccc(O)cc1)C(=O)N[C@H](Cc1ccccc1)C(=O)N[C@H](CCCCN)C(=O)N[C@H](CC(C)C)C(=O)N[C@H](CCC(N)=O)C(=O)N[C@H](CC(C)C)C(=O)N[C@H](CC(C)C)C(=O)N[C@H](CCCCN)C(=O)N[C@H](CCCCN)C(N)=O,,"CCARM 3090, methicillin-resistant",Mueller-Hinton broth,24 h,,,4 µM
CC[C@H](C)[C@H](NC(=O)[C@H](Cc1c[nH]c2ccccc12)NC(=O)[C@@H](NC(=O)[C@H](Cc1ccc(O)cc1)NC(=O)[C@@H]1CCCN1C(=O)[C@@H](NC(=O)[C@H](C)N)[C@@H](C)CC)[C@@H](C)CC)C(=O)N[C@@H](Cc1ccc(O)cc1)C(=O)N[C@@H](CCCNC(=N)N)C(=O)N[C@@H](CC(C)C)C(=O)N[C@@H](CC(C)C)C(=O)N[C@@H](CCCNC(=N)N)C(=O)N[C@@H](CCCCN)C(=O)NCC(N)=O,broth microdilution,ATCC 19609,,18 h,37 °C,,15 µM
CC(C)C[C@H](NC(=O)CNC(=O)CNC(=O)CNC(=O)CNC(=O)CNC(=O)[C@H](Cc1ccc(O)cc1)NC(=O)[C@H](CC(C)C)NC(=O)[C@@H](NC(=O)CNC(=O)[C@H](Cc1ccc(O)cc1)NC(=O)[C@H](CCCCN)NC(=O)[C@H](CC(N)=O)NC(=O)[C@@H](NC(=O)[C@H](CCCCN)NC(=O)[C@H](Cc1c[nH]c2ccccc12)NC(=O)CN)[C@@H](C)O)[C@@H](C)O)C(=O)N[C@@H](CCCCN)C(=O)N[C@@H](CCCCN)C(=O)N[C@@H](CC(C)C)C(=O)N[C@@H](CC(C)C)C(=O)N[C@@H](CC(C)C)C(=O)N[C@@H](CC(C)C)C(=O)N[C@@H](CC(C)C)C(=O)N[C@@H](CCCCN)C(=O)N[C@@H](CCCCN)C(=O)N[C@@H](CC(C)C)C(=O)NCC(=O)O,,ATCC 25923,Mueller-Hinton broth,18 to 24 h,37 °C,,128 µg/mL
c1ccc(CCOC2CCCc3c2[nH]c2ccccc32)cc1 (stereo not drawn),broth microdilution,HG001,,,,,> 16 µg/mL
CCn1cc(C(=O)O)c(=O)c2cc(F)c(N3CCNCC3)cc21,,1199B (NorA overexpressing),,,,,64 µM
CCOc1ccc2ccccc2c1C(=O)N[C@@H]1C(=O)N2[C@@H]1SC(C)(C)[C@@H]2C(=O)O,,"CRB, PBP4 overexpressor",,,,,256 µg/mL
CC[C@H](C)[C@H](NC(=O)CN)C(=O)NCC(=O)N[C@@H](CCCCN)C(=O)N[C@@H](Cc1ccccc1)C(=O)N[C@@H](CC(C)C)C(=O)N[C@@H](CCCCN)C(=O)N[C@@H](CCCCN)C(=O)N[C@@H](C)C(=O)N[C@@H](CCCCN)C(=O)N[C@@H](CCCCN)C(=O)N[C@@H](Cc1ccccc1)C(=O)NCC(=O)N[C@@H](CCCCN)C(=O)N[C@@H](C)C(=O)N[C@@H](Cc1ccccc1)C(=O)N[C@H](C(=O)N[C@@H](CCCCN)C(=O)N[C@H](C(=O)N[C@@H](CC(C)C)C(=O)N[C@@H](CCCCN)C(=O)N[C@@H](CCCCN)C(N)=O)[C@@H](C)CC)C(C)C,broth dilution,ATCC 25923,Mueller-Hinton broth,24 h,37 °C,,25 µM
CC[C@H](C)[C@H](NC(=O)[C@H](CC(C)C)NC(=O)[C@H](CCCNC(=N)N)NC(=O)[C@@H](N)CCCNC(=N)N)C(=O)N[C@@H](CCCNC(=N)N)C(=O)N[C@H](C(=O)N[C@@H](CC(=O)O)C(=O)N[C@H](C(=O)NCC(=O)N1CCC[C@H]1C(=O)N[C@H](C(=O)N[C@H](C(=O)N[C@@H](Cc1ccc(O)cc1)C(=O)N[C@@H](CC(=O)O)C(=O)N[C@@H](Cc1ccc(O)cc1)C(=O)N[C@@H](Cc1ccccc1)C(=O)N[C@@H](CCCCN)C(=O)N[C@@H](CC(=O)O)C(=O)N[C@@H](CCC(N)=O)C(=O)N[C@@H](CC(C)C)C(=O)N[C@@H](CC(C)C)C(=O)N[C@@H](CCCCN)C(=O)N[C@@H](CCCCN)C(N)=O)[C@@H](C)CC)[C@@H](C)CC)[C@@H](C)O)[C@@H](C)O,,"CCARM 3089, methicillin-resistant",Mueller-Hinton broth,24 h,,,> 128 µM
CC[C@H](C)[C@H](NC(=O)[C@H](CC(C)C)NC(=O)[C@H](CCCCN)NC(=O)[C@@H](NC(=O)[C@H](C)NC(=O)[C@H](CCC(=O)O)NC(=O)[C@H](Cc1c[nH]cn1)NC(=O)[C@@H](NC(=O)[C@H](CCCCN)NC(=O)[C@H](CCC(N)=O)NC(=O)[C@H](Cc1ccccc1)NC(=O)[C@@H](NC(=O)[C@H](CCCCN)NC(=O)[C@H](CCCCN)NC(=O)[C@H](CC(C)C)NC(=O)[C@H](C)N)C(C)C)[C@@H](C)CC)[C@@H](C)CC)C(N)=O,broth microdilution,MW2 resistant,,18 h,37 °C,,8 µM
CC[C@H](C)[C@H](NC(=O)[C@H](CC(C)C)NC(=O)[C@H](CCCNC(=N)N)NC(=O)[C@@H](N)CCCNC(=N)N)C(=O)N[C@@H](CC(C)C)C(=O)N[C@H](C(=O)N[C@@H](CCCCN)C(=O)N[C@H](C(=O)NCC(=O)N1CCC[C@H]1C(=O)N[C@H](C(=O)N[C@H](C(=O)N[C@@H](Cc1ccc(O)cc1)C(=O)N[C@@H](CCCCN)C(=O)N[C@@H](Cc1ccc(O)cc1)C(=O)N[C@@H](Cc1ccccc1)C(=O)N[C@@H](CCCCN)C(=O)N[C@@H](CCCCN)C(=O)N[C@@H](CCC(N)=O)C(=O)N[C@@H](CC(C)C)C(=O)N[C@@H](CC(C)C)C(=O)N[C@@H](CCCCN)C(=O)N[C@@H](CC(C)C)C(N)=O)[C@@H](C)CC)[C@@H](C)CC)[C@@H](C)O)[C@@H](C)O,,"CCARM 3095, methicillin-resistant",Mueller-Hinton broth,24 h,,,32 µM
CC[C@H](C)[C@H](N)C(=O)N[C@@H](CC(C)C)C(=O)NCC(=O)N[C@H](CCCCN)C(=O)N[C@H](C(=O)N[C@@H](Cc1c[nH]c2ccccc12)C(=O)N[C@@H](CCCCN)C(=O)NCC(=O)N[C@H](C(=O)N[C@@H](CCCCN)C(=O)N[C@@H](CC(=O)O)C(=O)N[C@H](C(=O)N[C@@H](CC(C)C)C(N)=O)[C@@H](C)CC)[C@@H](C)CC)[C@@H](C)CC,broth microdilution,ATCC 25923,Mueller-Hinton broth,16 h,37 °C,,100 µM
CC[C@H](C)[C@H](NC(=O)[C@H](CC(C)C)NC(=O)[C@@H](NC(=O)[C@@H](NC(=O)[C@@H](NC(=O)[C@H](CCCNC(=N)N)NC(=O)[C@H](CCCNC(=N)N)NC(=O)[C@H](CCCNC(=N)N)NC(=O)[C@@H](N)CCCNC(=N)N)C(C)C)[C@@H](C)CC)[C@@H](C)CC)C(=O)N[C@@H](CO)C(=O)N[C@@H](CC(C)C)C(=O)N[C@@H](CCCNC(=N)N)C(=O)N[C@@H](CCCNC(=N)N)C(=O)N[C@@H](CCCNC(=N)N)C(=O)N[C@@H](CCCNC(=N)N)C(=O)N[C@@H](Cc1ccccc1)C(=O)N[C@@H](CO)C(=O)N[C@@H](C)C(=O)N[C@@H](Cc1ccc(O)cc1)C(N)=O,broth microdilution,ATCC 29213,,,,highest value reported,4 µM

# Excerpt of the above:
Structure (SMILES),technique,strain,medium,time,temperature,setting,MIC
CCOc1ccc2ccccc2c1C(=O)N[C@@H]1C(=O)N2[C@@H]1SC(C)(C)[C@@H]2C(=O)O,,"CRB, PBP4 overexpressor",,,,,256 µg/mL
